Assay results of several laboratories.
Compare with care: the assays were run in different laboratories. Several values in a cell are separate wells, animals, samples, runs or records.
Target: Homeodomain-interacting protein kinase 2 (HIPK2, Homo sapiens, UniProt Q9H2X6)
UniProt Q9H2X6, sequence (whole entry, looked up): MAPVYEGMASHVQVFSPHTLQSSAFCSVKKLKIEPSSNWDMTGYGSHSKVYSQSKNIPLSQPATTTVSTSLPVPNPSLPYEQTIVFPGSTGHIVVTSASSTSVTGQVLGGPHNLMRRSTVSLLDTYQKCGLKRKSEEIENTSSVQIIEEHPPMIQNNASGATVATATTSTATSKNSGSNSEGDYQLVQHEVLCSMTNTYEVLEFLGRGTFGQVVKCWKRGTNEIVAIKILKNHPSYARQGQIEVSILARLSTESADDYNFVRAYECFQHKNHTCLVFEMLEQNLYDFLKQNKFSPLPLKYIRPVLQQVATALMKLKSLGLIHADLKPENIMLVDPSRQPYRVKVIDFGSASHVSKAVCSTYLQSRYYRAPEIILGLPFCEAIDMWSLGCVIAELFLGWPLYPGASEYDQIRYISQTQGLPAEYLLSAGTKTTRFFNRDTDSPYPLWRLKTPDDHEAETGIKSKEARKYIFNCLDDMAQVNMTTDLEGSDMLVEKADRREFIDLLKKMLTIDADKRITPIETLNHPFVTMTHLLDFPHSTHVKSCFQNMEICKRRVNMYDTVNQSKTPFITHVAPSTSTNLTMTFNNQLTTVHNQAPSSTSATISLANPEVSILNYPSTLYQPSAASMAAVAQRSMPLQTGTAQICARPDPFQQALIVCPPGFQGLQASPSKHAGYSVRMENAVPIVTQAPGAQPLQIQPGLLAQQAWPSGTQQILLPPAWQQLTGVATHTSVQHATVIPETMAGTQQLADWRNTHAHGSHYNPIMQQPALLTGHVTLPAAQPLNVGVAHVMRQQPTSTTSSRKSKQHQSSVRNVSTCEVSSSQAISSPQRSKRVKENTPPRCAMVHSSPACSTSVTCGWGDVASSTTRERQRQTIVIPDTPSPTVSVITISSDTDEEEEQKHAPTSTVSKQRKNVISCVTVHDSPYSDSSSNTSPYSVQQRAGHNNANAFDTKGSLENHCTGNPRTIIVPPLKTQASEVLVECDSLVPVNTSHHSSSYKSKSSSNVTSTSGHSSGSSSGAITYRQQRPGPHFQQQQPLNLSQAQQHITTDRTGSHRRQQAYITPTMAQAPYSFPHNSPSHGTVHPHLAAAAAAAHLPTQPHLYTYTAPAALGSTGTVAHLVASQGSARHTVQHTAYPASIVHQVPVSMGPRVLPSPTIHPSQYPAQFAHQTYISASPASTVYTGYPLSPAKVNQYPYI

Compound | test | conditions | how to read | quantity | result
NC(=O)[C@@H](O)C[C@H]1CCc2sc3ncnc(O[C@H]4CC[C@H](N5CCOCC5)CC4)c3c21 | enzyme activity, inhibitor | 10 µM | – | inhibition | -13%
Cc1cccc(-c2ccc3nc(NC(=O)C4CCCO4)nn3c2)c1 (stereo not shown) | enzyme activity, Dundee kinase panel | 10 µM | – | remaining activity | 114%
CN1CCN(Cc2ccc(-c3ccc(CO[C@H]4CCC[C@@H]4NC(=O)c4cc(-c5cnn(C)c5)cnc4N)cc3)cc2)CC1 | enzyme activity, inhibitor | 0.1 µM | – | inhibition | 1%
CCn1cc(C(=O)O)c(=O)c2c(N)c(F)c(NC3CCCCC3)cc21 | kinase activity | 0.1 µM, with: ATP at Km | – | inhibition | 11.3%
COc1c(OCCCN2CCOCC2)ccc2c1N=C(NC(=O)c1cnc(N)nc1)N1CCN=C21 | kinase activity, inhibitor | 1 µM | baseline: untreated control | remaining activity | 111%
Cc1cccc(O[C@H]2CCC[C@@H](C(C)CNCc3ccncc3)C2)c1 (relative stereo) | enzyme activity, inhibitor | 10 µM | – | inhibition | -3%
COc1cc(Nc2nc(C)cc(-c3cnn4nc(OC)ccc34)n2)cc(C(F)(F)F)c1 | binding, competition with immobilised ligand | 1 µM | – | remaining binding | 94%
O=C(Cc1ccc(OCc2ccccc2)cc1)NC1(C(=O)O)CCN(C(=O)c2ccc(-c3cccc(Cl)c3)cc2)CC1 | enzyme activity, inhibitor | 10 µM | – | activity vs control | 109%
CNC(=O)C1CCN(c2cc(C)c(F)cc2NC(=O)c2ccc(-c3cc(O)ccc3C)c(C)c2)CC1 | binding, competition with immobilised ligand | 1 µM | – | remaining binding | 92%
Cc1ccc(C)c(-c2ccc3nc(NC(=O)C4CCCCC4)nn3c2)c1 | enzyme activity, Dundee kinase panel | 10 µM | – | remaining activity | 86%
CNC1C[S+]2CC[S+]3CC[S+](C1)[Ru-4]321([N]=C=S)[n]2c3ccc(OC)cc3c3c4c(c5cc(F)c[n+]1c5c32)C(=O)NC4=O (stereo not shown) | KinomeScan | 0.1 µM | baseline: untreated | remaining binding | 78%
Cc1cnc2nc1Nc1cccc(c1)COC/C=C/COCc1cc(ccc1OCCN1CCOCC1)N2 | binding | 0.1 µM | – | remaining binding | 82%
Nc1ncc2c(n1)-c1c([nH]c3ccc(C4=CCOCC4)cc13)CCC2 | binding, competition with immobilised ligand | 1 µM | – | remaining binding | 54%
CCN1CCN(Cc2ccc(C(=O)Nc3ccc(C)c(NCc4cnc5[nH]ccc5c4OC)c3)cc2C(F)(F)F)CC1 | binding, competition with immobilised ligand | 1 µM | – | remaining binding | 56%
C=CC(=O)N1CCc2ccc(-n3c(=O)ccc4cnc5ccc(-c6cnn(C)c6)cc5c43)cc21 | KINOMEscan | 1 µM | baseline: DMSO control | remaining binding | 66%
C=CC(=O)Nc1cccc(-c2cnc3[nH]cc(C(=O)NC(C)(C)C)c3n2)c1 | kinase activity | 0.1 µM | – | inhibition | 64% and 67%

A few entries again:
Compound | test | conditions | how to read | quantity | result
COc1cc(Nc2nc(C)cc(-c3cnn4nc(OC)ccc34)n2)cc(C(F)(F)F)c1 | binding, competition with immobilised ligand | 1 µM | – | remaining binding | 94%
C=CC(=O)N1CCc2ccc(-n3c(=O)ccc4cnc5ccc(-c6cnn(C)c6)cc5c43)cc21 | KINOMEscan | 1 µM | baseline: DMSO control | remaining binding | 66%
